# Experimental data of several laboratories.
# Compare with care: the assays were run in different laboratories. Values joined by “and” are separate records of one study, mostly repeats; a detail may differ.
Structure (SMILES),organism,test,test system,conditions,inhibition
CC(C)c1ccc2c(c1)CC[C@H]1[C@](C)(C(=O)OCC#CCN3CCCC3)CCC[C@]21C,SARS-CoV-2 pseudovirus,pseudovirus infection,BHK-21-hACE2,20.0 µM,> 60%
O=S(=O)(O)c1c2ccccc2c(-c2c3nc(c(-c4c5ccccc5c(S(=O)(=O)O)c5ccccc45)c4ccc([nH]4)c(-c4c5ccccc5c(S(=O)(=O)O)c5ccccc45)c4nc(c(-c5c6ccccc6c(S(=O)(=O)O)c6ccccc56)c5ccc2[nH]5)C=C4)C=C3)c2ccccc12,Orthopoxvirus vaccinia,viral replication,,"25 µg/mL, 24 h",81%
CC(C)CC(C(=O)N1CC2(CC1C#N)C(=O)Nc1ccccc12)N(C)C(=O)c1cc2c(F)cc(F)c(F)c2[nH]1 (centres unmarked),SARS-CoV-2,viral replication,Vero E6,0.0005 µM,0.61% and 0% and 1.32%
Cc1oc2nc1C(=O)N[C@](C)(C(=O)O)c1nc(c(C)o1)C(=O)N[C@](C)(C(=O)O)c1nc(c(C)o1)C(=O)N[C@]2(C)C(=O)O,SARS-CoV-2,viral replication,"Vero E6, NRC-03-nhCoV",10 µM,36%
Cc1ccc(N2CC3CC(C2)N3)cc1C(=O)NC1(c2ccc3c4c(cccc24)C(=O)N3C)CC1,SARS-CoV-2,viral replication,"Vero C1008, XBB.1",12.5 µM,100%
O=[N+]([O-])c1ccc(-n2nc(-c3ccc(F)cc3)cc2-c2ccc(F)cc2)c([N+](=O)[O-])c1,Japanese encephalitis virus,"viral replication, measured: viral RNA","SA14-14-2, mice, spleen","ip, 100 mg/kg/day, 120 h",70.5%
COc1ccc(NC(=O)c2ccc(-c3ccc(C(=N)N)cc3C)cc2)cc1N1CCN(C)CC1,SARS-CoV-2 B.1.351 pseudotyped particles,viral entry,Calu-3,"concentration not given, 48 h",~50%
CC(C)C1=CC2=C(C=O)C[C@@H]3[C@](C)(CCC[C@@]3(C)C(=O)OCC#CCN3CCCC3)[C@H]2CC1,SARS-CoV-2 pseudovirus,pseudovirus infection,BHK-21-hACE2,20.0 µM,19.7%
Cc1ccc(N2CC(N3CCC(C)(O)CC3)C2)cc1C(=O)NC1(c2ccc3c4c(cccc24)C(=O)N3C)CC1,SARS-CoV-2,viral replication,"Vero C1008, XBB.1",0.01715 µM,15%
COC(=O)c1cc2c(=O)n3ccccc3nc2n1Cc1ccccc1,Severe acute respiratory syndrome coronavirus 2,"viral replication, inhibitor, qPCR",Vero C1008,10 µM,42.5%
Cc1oc2nc1C(=O)N[C@](C)(C(=O)NCCc1ccccc1)c1nc(c(C)o1)C(=O)N[C@](C)(C(=O)NCCc1ccccc1)c1nc(c(C)o1)C(=O)N[C@]2(C)C(=O)NCCc1ccccc1,SARS-CoV-2,virucidal activity,"Vero E6, NRC-03-nhCoV",5 µM,0%
Cc1ccc(N2CCN(C)CC2)cc1C(=O)NC1(c2ccc3c4c(cccc24)CC3)CC1,SARS-CoV-2,viral replication,"Vero C1008, Omicron BA.5",0.005716 µM,0%
CC(C)c1ccc2c(c1)CC[C@H]1[C@](C)(C(=O)OCC#CCN3CCOCC3)CCC[C@]21C,SARS-CoV-2 pseudovirus,pseudovirus infection,BHK-21-hACE2,20.0 µM,37.8%
Cc1ccc(N2CC3CC(C2)N3C)cc1C(=O)NC1(c2ccc3c4c(cccc24)C(=O)N3C)CC1,Severe acute respiratory syndrome coronavirus 2,viral replication,Vero C1008,1.389 µM,100%
COC(=O)[C@]1(C)CCC[C@]2(C)[C@H]3C[C@H]4C(C(C)C)=C[C@]3(CC[C@H]21)[C@H]1[C@@H]4[C@@H](OCC#CCN2CCCC2)CC[C@@H]1O,SARS-CoV-2 pseudovirus,pseudovirus infection,BHK-21-hACE2,20.0 µM,50.7%
O=C(C=Cc1ccc(O)c(O)c1)OC1CC(O)(C(=O)O)CC(OC(=O)C=Cc2ccc(O)c(O)c2)C1O (centres unmarked),Severe acute respiratory syndrome coronavirus 2,"cytopathic effect, inhibitor",Vero C1008,25 µM,0%
Cc1oc2nc1C(=O)N[C@](C)(C(=O)OC(C)C)c1nc(c(C)o1)C(=O)N[C@](C)(C(=O)OC(C)C)c1nc(c(C)o1)C(=O)N[C@]2(C)C(=O)OC(C)C,SARS-CoV-2,virucidal activity,"Vero E6, NRC-03-nhCoV",10 µM,18%
CC(C)C1=C[C@@]23CC[C@@H]4[C@](C)(CCC[C@@]4(C)C(=O)NCC#CCN4CCCNCC4)[C@H]2C[C@@H]1[C@H]1C(=O)OC(=O)[C@H]13,SARS-CoV-2 pseudovirus,pseudovirus infection,BHK-21-hACE2,20.0 µM,28.3%
Cc1ccc(N2CC(N3CCC(C)(O)CC3)C2)cc1C(=O)NC1(c2ccc3c4c(cccc24)CC3)CC1,SARS-CoV-2,viral replication,"Vero C1008, Omicron BA.5",0.01715 µM,0%
COc1c(/C=C/C(=O)c2ccc(O)cc2)ccc(O)c1O,SFTSV,IL-1β secretion,THP-1 macrophages,"10 µM, 48 h",> 90%

# For quick reference, copied from above:
Structure (SMILES),organism,test,test system,conditions,inhibition
Cc1oc2nc1C(=O)N[C@](C)(C(=O)O)c1nc(c(C)o1)C(=O)N[C@](C)(C(=O)O)c1nc(c(C)o1)C(=O)N[C@]2(C)C(=O)O,SARS-CoV-2,viral replication,"Vero E6, NRC-03-nhCoV",10 µM,36%
Cc1ccc(N2CC3CC(C2)N3)cc1C(=O)NC1(c2ccc3c4c(cccc24)C(=O)N3C)CC1,SARS-CoV-2,viral replication,"Vero C1008, XBB.1",12.5 µM,100%
